Measured values of several laboratories.
Lines come from different studies, so protocols differ. Several values in a cell are separate wells, animals, samples, runs or records. ± gives the spread as reported.

Compound | assay | system | setting | fraction unbound
CC(F)(F)CN1Cc2cc(C(F)(F)F)ncc2C2=CN=C(NCc3c(F)ccc4c3CCO4)N3C=NC(C1=O)C23 (stereo not drawn) | – | mouse plasma | – | < 0.01
CN1CCN(c2ccc(C(=O)Nc3n[nH]c4ccc(Cc5cc(F)cc(F)c5)cc34)c(NC3CCOCC3)c2)CC1 | equilibrium dialysis | cell medium with 10% FBS | – | 0.16
O=C1C2N=CN3C(NCc4c(F)ccc5c4CCO5)=NC=C(c4cnc(C(F)(F)F)cc4CN1CC(F)F)C23 (stereo not drawn) | – | mouse plasma | – | < 0.01
Cc1nnc(Nc2ccnc3ccc(-c4ccc(S(=O)(=O)N5CCOCC5)cc4)cc23)nc1C | – | human plasma | – | 0.024
O=C1CN(c2nc(=O)c3cc(C(F)(F)F)cc([N+](=O)[O-])c3s2)CCN1C1CCCC1 | equilibrium dialysis | human plasma | 1 µM, 18 h, pH 7.4 | 0.093
CC(O)C(C)n1ncn(-c2ccc(N3CCN(c4ccc(OCC5COC(Cn6cncn6)(c6ccc(Cl)cc6Cl)O5)cc4)CC3)cc2)c1=O (stereo not drawn) | equilibrium dialysis | human plasma | – | 0.008 ± 0.005
COc1cc2c3c(n(CCCN4CCOCC4)c(=O)c2cc1OC)-c1cc2c(cc1C3=O)OCO2 | equilibrium dialysis | culture medium, 10% FBS | 4300 ng/mL, 24 h | 0.068
C[C@@H]1COCCN1c1cccc(-c2ccc3ncnc(Nc4ncco4)c3c2)c1 | – | human plasma | – | 0.0072
CC(C)NCC(O)COc1cccc2ccccc12 (stereo not drawn) | rapid equilibrium dialysis | rat plasma | 10 µM, 4 h, 37 °C | 0.153
CC(C)(C)c1cc(C(C)(C)C)c(NC(=O)c2c[nH]c3ccccc3c2=O)cc1O | rapid equilibrium dialysis | human, plasma | 6 h post-dose | ~0.046
CC(=O)CC(c1ccccc1)c1c(O)c2ccccc2oc1=O (stereo not drawn) | equilibrium dialysis | male Sprague Dawley rat plasma | 2 µM, 4 h, pH 7.4, 37 °C | 0.0219
COc1ccc([C@@H]2Sc3ccccc3N(CCN(C)C)C(=O)[C@@H]2OC(C)=O)cc1 | rapid equilibrium dialysis | rat plasma | 2 µM, 6 h, pH 7.4 | 0.261
CCCC[C@@H]1NC(=O)[C@H](Cc2ccc(O)cc2)NC(=O)[C@@H]2CCCN2C(=O)[C@H](CC(=O)O)NC(=O)[C@H](C)NC(=O)[C@H](Cc2ccccc2)NC(=O)[C@@H]2CSCCC(=O)N3CN(CN(C3)C(=O)CCSC[C@@H](C(=O)N[C@@H](C)C(N)=O)NC1=O)C(=O)CCSC[C@H](NC(C)=O)C(=O)N[C@@H](CC(C)(C)C)C(=O)N1CCC[C@H]1C(=O)N[C@@H](CCC(=O)O)C(=O)N[C@H](CCCCNC(=O)CCc1cn(CCOCCOCCOCCOCCOCCC(=O)N[C@H]3CSCCC(=O)N4CN5CN(C4)C(=O)CCSC[C@H](NC(=O)[C@@H](CC(=O)O)NC(=O)[C@H](Cc4cccc6ccccc46)NC(=O)[C@@H]4CCCN4C3=O)C(=O)N[C@@H](CCSC)C(=O)N[C@@H](CCCCNC(=N)N)C(=O)N[C@@H](CC(=O)O)C(=O)N[C@@H](Cc3c[nH]c4ccccc34)C(=O)N[C@@H](CO)C(=O)N[C@@H]([C@@H](C)O)C(=O)N3CCC[C@H]3C(=O)N3C[C@H](O)C[C@H]3C(=O)N[C@@H](Cc3c[nH]c4ccccc34)C(=O)N[C@H](C(N)=O)CSCCC5=O)nn1)C(=O)N1CCC[C@H]1C(=O)N[C@@H](Cc1ccc(O)cc1)C(=O)N2 | ultracentrifugation | rat plasma | – | 0.37
NC/C(=C\F)COc1cccc(Cn2c(=S)[nH]c(=O)c3[nH]cnc32)c1 | – | human plasma | 10 µM, 5 (unit not given) | 0.27
C=CC(=O)Nc1cc(Nc2nccc(-c3cn(C)c4ccccc34)n2)c(OCC(F)(F)F)nc1N(C)CCN(C)C | rapid equilibrium dialysis | human plasma | 1 µg/mL | 0.59% and 0.67% and 0.63%
O=C(CS(=O)(=O)O)Nc1ccc(N2CCOCC2)c(Br)c1 | equilibrium dialysis | mouse plasma | 4.5 h | > 0.2
CC#Cc1cncc(-c2ccc3c(c2)[C@@]2(N=C(C)C(N)=N2)[C@]2(CC[C@H](OC)CC2)C3)c1 | equilibrium dialysis | human plasma | 6 h, pH 7.4 | 0.087
N#C[C@@]1(c2ccc3c(N)ncnn23)O[C@H](CO)[C@@H](O)[C@H]1O | – | human plasma | 100 µM | 0.841

Compound | assay | system | setting | fraction unbound
O=S(=O)(c1ccc(-c2ccc3nccc(Nc4ccccc4)c3c2)cc1)N1CCOCC1 | – | human plasma | – | 0.012
CN1CCC(Nc2ncnc3ccc(-c4cccc(N5CCOCC5)c4)cc23)CC1 | – | human plasma | – | 0.28
CC(=O)Nc1nnc(N2CCN([C@@H](C)c3ccc4c(c3)OCO4)CC2)s1 | – | mouse plasma | 1 µM | 0.115
CCC(C)n1ncn(-c2ccc(N3CCN(c4ccc(OCC5COC(Cn6cncn6)(c6ccc(Cl)cc6Cl)O5)cc4)CC3)cc2)c1=O (stereo not drawn) | rapid equilibrium dialysis | 10% human plasma | 2 µM, 24 h, pH 7.4 | 0.0009
Cc1noc2c1-c1ccccc1C(c1ccc(Cl)cc1)=N[C@H]2CC(N)=O | equilibrium dialysis | mouse plasma | 10 µM, 4 h, pH 7.4 | 0.0325 ± 0.0062
c1cc(-c2ccc3ncnc(Nc4ncco4)c3c2)cc(N2CC3(COC3)C2)c1 | – | human plasma | – | 0.013
Cn1c(=O)c2c(ncn2C)n(C)c1=O | rapid equilibrium dialysis | human plasma | 2 µM, 6 h, pH 7.4 | 0.753
FC(F)(F)c1cc(Nc2ncnc3ccc(-c4cccc(N5CCOCC5)c4)cc23)ccc1Cl | – | human plasma | – | < 0.0005
O=S(=O)(c1ccc(-c2ccc3nccc(Nc4ccnnc4)c3c2)cc1)N1CCOCC1 | – | human plasma | – | 0.42
CC(C)(C)NC[C@H](O)COc1nsnc1N1CCOCC1 | equilibrium dialysis | human plasma | – | 0.715
C=CC(=O)Nc1cc(Nc2nccc(Nc3cc(Cl)c(F)cc3C(C)(C)O)n2)c(OC)cc1N1CC[C@@H](N(C)C)C1 | equilibrium dialysis | rat plasma | 5 µM, 18 h, pH 7.4 | 0.087 ± 0.011
Nc1nnc(-c2cccc(Cl)c2Cl)c(N)n1 | – | mouse plasma | – | 0.374
O=C(NO)c1ccc(CN(c2cnccn2)c2cnccn2)cc1 | – | human plasma | – | 0.56
Cc1ccccc1CN1C(=O)C2=C(CCN(Cc3ccccc3)C2)N2CCN=C12 | equilibrium dialysis | plasma | 7.73 mg/L | 0.0492
Cc1cc(Nc2ccnc3ccc(-c4ccc(S(=O)(=O)N5CCOCC5)cc4)cc23)on1 | – | human plasma | – | 0.012
Clc1ccc(Nc2ncnc3ccc(-c4cccc(N5CCOCC5)c4)cc23)cc1 | – | human plasma | – | < 0.0017
Cc1onc(-c2ccccc2Cl)c1C(=O)N[C@@H]1C(=O)N2[C@@H]1SC(C)(C)[C@@H]2C(=O)O | ultrafiltration | human, patient plasma | – | 0.35
C[C@@H](O)[C@H](NC(=O)[C@H](Cc1ccc(O)cc1)NC(=O)[C@H](Cc1ccc(O)cc1)NC(=O)[C@H](CO)NC(=O)[C@H](CCCNC(=N)N)NC(=O)[C@H](Cc1c[nH]cn1)NC(=O)[C@@H](N)Cc1c[nH]c2ccccc12)C(=O)N[C@@H](Cc1c[nH]c2ccccc12)C(=O)N[C@@H](CC(N)=O)C(=O)NCCCC[C@H](NC(=O)[C@H](CC(N)=O)NC(=O)[C@H](Cc1c[nH]c2ccccc12)NC(=O)[C@@H](NC(=O)[C@H](Cc1ccc(O)cc1)NC(=O)[C@H](Cc1ccc(O)cc1)NC(=O)[C@H](CO)NC(=O)[C@H](CCCNC(=N)N)NC(=O)[C@H](Cc1c[nH]cn1)NC(=O)[C@@H](N)Cc1c[nH]c2ccccc12)[C@@H](C)O)C(=O)NCCCC[C@H](NC(=O)[C@H](CCCCNC(=O)[C@H](CC(N)=O)NC(=O)[C@H](Cc1c[nH]c2ccccc12)NC(=O)[C@@H](NC(=O)[C@H](Cc1ccc(O)cc1)NC(=O)[C@H](Cc1ccc(O)cc1)NC(=O)[C@H](CO)NC(=O)[C@H](CCCNC(=N)N)NC(=O)[C@H](Cc1c[nH]cn1)NC(=O)[C@@H](N)Cc1c[nH]c2ccccc12)[C@@H](C)O)NC(=O)[C@H](CC(N)=O)NC(=O)[C@H](Cc1c[nH]c2ccccc12)NC(=O)[C@@H](NC(=O)[C@H](Cc1ccc(O)cc1)NC(=O)[C@H](Cc1ccc(O)cc1)NC(=O)[C@H](CO)NC(=O)[C@H](CCCNC(=N)N)NC(=O)[C@H](Cc1c[nH]cn1)NC(=O)[C@@H](N)Cc1c[nH]c2ccccc12)[C@@H](C)O)C(=O)N[C@@H](CCCCN)C(=O)N[C@@H](CCCCN)C(=O)N[C@@H](CCCCN)C(N)=O | – | human serum albumin | – | 0.05

Repeated from above:
Compound | assay | system | setting | fraction unbound
C[C@@H]1COCCN1c1cccc(-c2ccc3ncnc(Nc4ncco4)c3c2)c1 | – | human plasma | – | 0.0072
C=CC(=O)Nc1cc(Nc2nccc(Nc3cc(Cl)c(F)cc3C(C)(C)O)n2)c(OC)cc1N1CC[C@@H](N(C)C)C1 | equilibrium dialysis | rat plasma | 5 µM, 18 h, pH 7.4 | 0.087 ± 0.011
Cc1ccccc1CN1C(=O)C2=C(CCN(Cc3ccccc3)C2)N2CCN=C12 | equilibrium dialysis | plasma | 7.73 mg/L | 0.0492
